Measured values from different studies.
Lines come from different studies, so protocols differ. Numbers after ± are the reported error. ≈ marks a conversion by molar mass, not a printed value.

| Substance | assay | test system | setting | how to read | measurement | value |
| --- | --- | --- | --- | --- | --- | --- |
| Cc1cc(-c2cc(OC(=O)c3ccccc3)ccc2Cl)cc2nnc(Nc3ccc(OCCN4CCCC4)cc3)nc12 |  | Dutch Belted rabbit, sclera | topical ocular, 40 µL drop of 0.6%, 2 h |  | tissue concentration | 100 nM |
| CC1(C)Oc2cc3oc(=O)ccc3cc2C[C@@H]1O |  | CD-1 mouse, male, kidney | oral gavage, 80 mg/kg daily, 4 weeks |  | organ weight | 0.67 ± 0.1 g |
| CC(C)[C@H](NC(=O)[C@@H]1CCCN1C(=O)[C@H](CCCNC(=N)N)NC(=O)[C@H](CS)NC(=O)[C@H](Cc1c[nH]c2ccccc12)NC(=O)[C@H](CCCNC(=N)N)NC(=O)[C@@H](Cc1ccccc1)NC(=O)[C@H](Cc1c[nH]cn1)NC(=O)[C@H](CCC(=O)O)NC(=O)[C@H](CS)NC(=O)[C@H](CS)NC(=O)[C@H](CCCCN)NC(=O)[C@@H]1CC(=O)N[C@@H](CCCNC(=N)N)C(=O)N[C@@H](C(C)C)C(=O)N[C@@H](CC(=O)O)C(=O)N[C@H](Cc2ccc(O)cc2)C(=O)N1)C(N)=O [technetium-99m labelled] |  | C57 mouse, female, B16/F1 melanoma, skin | intravenous, 2 h, together with: NDP-MSH 10 µg co-injected |  | tissue uptake | 0.65 ± 0.1 %ID/g |
| CC#CC(=O)N1CCC[C@H]1c1nc(-c2ccc(C(=O)Nc3ccccn3)cc2)c2c(N)nccn12 |  | Japanese patients, plasma | oral, 100 mg twice daily, day 8, fasting, multiple dose, arithmetic mean |  | apparent volume of distribution (Vz/F) | 220 ± 107 L |
| COc1c(N2C[C@@H]3CCCN[C@@H]3C2)c(F)cc2c(=O)c(C(=O)O)cn(C3CC3)c12 |  | male Hartley guinea pig, anaesthetized | intravenous infusion, 1 mg/kg, 10 min infusion | reference: baseline | QTc change | 0.9 ± 1.7% |
| Cc1cccc(C)c1N(CC(=O)Nc1ccc(-c2ncon2)cc1)C(=O)C1CCS(=O)(=O)CC1 |  | human | oral, 200 mg | reference: parent AUClast | AUClast excess of radioactivity | ~16% |
| CC(C)(Oc1ccc(CCNC(=O)c2ccc(Cl)cc2)cc1)C(=O)O | shake-flask | soybean oil | 37 °C |  | thermodynamic solubility | ≤ 0.2 mg/g |
| N[C@@H](CC(=O)N1CCn2c(nnc2C(F)(F)F)C1)Cc1cc(F)c(F)cc1F |  | healthy Korean subjects, plasma | oral, 100 mg single dose, ABCB1 G2677T/A TA |  | AUC(0-2 h) | 478 ± 159 ng·h/mL |
| CCCC(C)N1CCC(N(Cc2ccccc2)C(=O)Nc2ccc(I)cc2)CC1 (stereo not drawn) |  | CD-1 female mouse, liver microsomes | 0.8 µM |  | intrinsic clearance | 120 mL/min/kg |
| O=C(O)c1cc(/N=N/c2ccc(S(=O)(=O)Nc3ccccn3)cc2)ccc1O | shake-flask | Captex 355 | 37 °C |  | thermodynamic solubility | 0.02 mg/g |
| S=C(NCCc1nc(-c2ccccc2)cs1)N1CCCCC1 |  | mice, brain | intraperitoneal, 5 mg/kg, 1 h |  | brain concentration | 187 ± 89 nM |
| [2H]C([2H])([2H])Oc1cc2c(cc1OC([2H])([2H])[2H])C1CC(=O)C(CC(C)C)CN1CC2 (stereo not drawn) | measured: deuterated α-HTBZ | healthy human volunteers, plasma | oral, 18 mg single dose, standard meal |  | dose-normalized AUC(0-inf) | 16.4 ng·h/mL |
| CCCC[C@@H]1NC(=O)[C@@H](NC(=O)[C@H](CCC(=O)O)NC(=O)CNC(=O)CN2CCN(CC(=O)O)CCN(CC(=O)O)CCN(CC(=O)O)CC2)CCCCNC(=O)C[C@@H](C(N)=O)NC(=O)[C@H](C(C)C)NC(=O)[C@@H]2CCCN2C(=O)[C@H](CCCNC(=N)N)NC(=O)CNC(=O)[C@H](Cc2c[nH]c3ccccc23)NC(=O)[C@H](CCCNC(=N)N)NC(=O)[C@@H](Cc2ccccc2)NC(=O)[C@H](Cc2c[nH]cn2)NC(=O)[C@H](CCC(=O)O)NC1=O [indium-111 labelled] |  | normal C57 mice, stomach | intravenous, 0.037 MBq, 4 h |  | tissue uptake | 0.08 ± 0.06 %ID/g |
| O=C(CCCN1CCC(O)(c2ccc(Cl)cc2)CC1)c1ccc(F)cc1 | shake-flask | Captex 355 | 37 °C |  | thermodynamic solubility | 2.42 ± 0.08 mg/g |
| Cc1c(O)cccc1C(=O)N[C@@H](CSc1ccccc1)[C@H](O)CN1C[C@H]2CCCC[C@H]2C[C@H]1C(=O)NC(C)(C)C | equilibrium dialysis | cellulose membrane, cell-free | pH 7.4, no Pluronic P85 |  | effective permeability | 50 ± 2.5 ×10⁻⁶ cm/s |
| acyl ghrelin (human) |  | wild-type mice, olfactory bulb | intravenous, dose not given, 10 min, vascular space corrected |  | tissue/serum ratio | 10.2 µL/g |
| CCCOc1ccc([C@H]2CNC(=O)N2c2ccc3[nH]cnc3c2)cc1 |  | human, plasma | oral, 1800 mg, single dose, fasted, healthy volunteers |  | AUC(0-inf) | 32200 ng·h/mL |
| N=S1(=O)CCC(NC(=O)c2n[nH]cc2NC(=O)c2c(Cl)cccc2Cl)CC1 (stereo not drawn) | shake flask | water | pH 6.5 |  | thermodynamic solubility | 52 µg/mL (≈ 121 µM) |
